# Published values gathered from unrelated publications.
# Numbered parts are unrelated; each lists some results of a single study. Substitutions count along the parent as printed.
# Sequence of UniProt Q9M1R4 (whole entry, looked up): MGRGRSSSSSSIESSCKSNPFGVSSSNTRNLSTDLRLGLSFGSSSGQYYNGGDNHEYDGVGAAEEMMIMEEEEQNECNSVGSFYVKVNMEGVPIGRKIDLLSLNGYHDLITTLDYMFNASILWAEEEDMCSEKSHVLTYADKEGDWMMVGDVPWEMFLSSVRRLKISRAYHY
# Sequence of UniProt Q9XED8 (whole entry, looked up): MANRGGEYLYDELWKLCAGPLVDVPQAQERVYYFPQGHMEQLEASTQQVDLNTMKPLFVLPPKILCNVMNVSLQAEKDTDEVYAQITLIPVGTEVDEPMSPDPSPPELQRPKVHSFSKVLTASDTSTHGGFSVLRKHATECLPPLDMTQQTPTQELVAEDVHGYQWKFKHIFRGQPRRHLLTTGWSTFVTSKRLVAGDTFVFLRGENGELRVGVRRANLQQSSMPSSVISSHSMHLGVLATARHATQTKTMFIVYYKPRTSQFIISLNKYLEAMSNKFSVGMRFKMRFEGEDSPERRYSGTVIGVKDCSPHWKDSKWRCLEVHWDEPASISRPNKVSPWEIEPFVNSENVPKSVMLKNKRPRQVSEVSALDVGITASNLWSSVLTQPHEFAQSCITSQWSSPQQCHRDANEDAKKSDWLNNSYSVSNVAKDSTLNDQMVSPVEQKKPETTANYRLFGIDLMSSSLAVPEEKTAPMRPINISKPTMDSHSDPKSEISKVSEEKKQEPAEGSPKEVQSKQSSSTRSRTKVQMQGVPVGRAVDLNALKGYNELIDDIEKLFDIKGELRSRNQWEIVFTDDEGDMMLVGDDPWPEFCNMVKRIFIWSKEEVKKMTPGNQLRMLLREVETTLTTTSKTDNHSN
# Sequence of UniProt O24408 (whole entry, looked up): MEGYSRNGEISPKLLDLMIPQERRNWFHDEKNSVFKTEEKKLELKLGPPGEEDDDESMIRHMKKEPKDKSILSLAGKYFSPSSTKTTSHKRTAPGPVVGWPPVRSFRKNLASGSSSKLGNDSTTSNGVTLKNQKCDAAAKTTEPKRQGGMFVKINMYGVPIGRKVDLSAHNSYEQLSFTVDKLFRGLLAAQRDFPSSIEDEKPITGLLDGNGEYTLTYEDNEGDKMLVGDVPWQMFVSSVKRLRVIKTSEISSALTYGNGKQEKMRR
# Sequence of UniProt O24410 (whole entry, looked up): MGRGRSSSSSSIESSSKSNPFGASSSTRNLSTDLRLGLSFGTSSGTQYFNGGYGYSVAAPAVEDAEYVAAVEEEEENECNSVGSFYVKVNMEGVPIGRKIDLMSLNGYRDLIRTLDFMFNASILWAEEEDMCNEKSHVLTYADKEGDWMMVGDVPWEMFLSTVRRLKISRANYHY
# Sequence of UniProt P93024 (whole entry, looked up): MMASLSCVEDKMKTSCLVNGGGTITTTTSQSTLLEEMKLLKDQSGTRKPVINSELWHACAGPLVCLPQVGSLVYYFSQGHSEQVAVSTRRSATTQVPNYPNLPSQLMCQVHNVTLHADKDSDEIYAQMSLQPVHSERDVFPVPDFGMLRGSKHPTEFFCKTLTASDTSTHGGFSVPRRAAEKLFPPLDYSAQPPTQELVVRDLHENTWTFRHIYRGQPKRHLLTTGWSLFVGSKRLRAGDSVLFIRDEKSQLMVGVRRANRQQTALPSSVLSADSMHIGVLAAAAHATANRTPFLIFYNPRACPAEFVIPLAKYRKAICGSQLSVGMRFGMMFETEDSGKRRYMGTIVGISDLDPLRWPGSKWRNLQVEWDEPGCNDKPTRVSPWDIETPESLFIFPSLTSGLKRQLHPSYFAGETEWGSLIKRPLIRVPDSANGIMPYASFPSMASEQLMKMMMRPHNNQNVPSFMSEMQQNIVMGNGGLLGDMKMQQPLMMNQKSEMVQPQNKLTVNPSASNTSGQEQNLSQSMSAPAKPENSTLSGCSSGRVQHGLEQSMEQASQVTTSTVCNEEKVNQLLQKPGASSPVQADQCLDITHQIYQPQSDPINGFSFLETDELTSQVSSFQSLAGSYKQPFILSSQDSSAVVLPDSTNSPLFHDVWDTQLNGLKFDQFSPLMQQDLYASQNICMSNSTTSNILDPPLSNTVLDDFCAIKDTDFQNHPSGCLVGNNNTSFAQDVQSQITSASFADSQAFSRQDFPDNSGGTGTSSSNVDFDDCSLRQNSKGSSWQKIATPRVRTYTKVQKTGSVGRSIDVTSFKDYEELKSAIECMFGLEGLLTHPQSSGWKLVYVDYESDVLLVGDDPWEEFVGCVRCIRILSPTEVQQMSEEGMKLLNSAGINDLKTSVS
# Sequence of UniProt Q9C5X0 (whole entry, looked up): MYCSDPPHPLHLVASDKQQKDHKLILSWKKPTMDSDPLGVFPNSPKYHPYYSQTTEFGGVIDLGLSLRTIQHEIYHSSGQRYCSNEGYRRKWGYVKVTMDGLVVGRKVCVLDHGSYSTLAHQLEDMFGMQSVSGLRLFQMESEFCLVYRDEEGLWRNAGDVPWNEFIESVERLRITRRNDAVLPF

# Study 1
# Molecule: B1 (IAA14)
# Method: two-hybrid
# Reading: higher = firmer interaction
# B1: IAA14 (Arabidopsis thaliana, UniProt Q38832); chain MNLKETELCLGLPGGTETVESPAKSGVGNKRGFSETVDLKLNLQSNKQGHVDLNTNGAPKEKTFLKDPSKPPAKAQVVGWPPVRNYRKNVMANQKSGEAEEAMSSGGGTVAFVKVSMDGAPYLRKVDLKMYTSYKDLSDALAKMFSSFTMGSYGAQGMIDFMNESKVMDLLNSSEYVPSYEDKDGDWMLVGDVPWPMFVESCKRLRIMKGSEAIGLAPRAMEKFKNRS
partner,setting,scale,positive tests
"IAA17 (Arabidopsis thaliana, UniProt P93830)",,relative to: out of 4 tests,2
"IAA30 (Arabidopsis thaliana, UniProt Q9M1R4)",weak activation fusion,relative to: out of 2 tests,1
"IAA20 (Arabidopsis thaliana, UniProt O24410)",weak activation fusion,relative to: out of 4 tests,1
"IAA18 (Arabidopsis thaliana, UniProt O24408)",,relative to: out of 4 tests,1
"ARF9 519-638 (Arabidopsis thaliana, UniProt Q9XED8)",weak activation fusion,relative to: out of 4 tests,1
"ARF5 788-902 (Arabidopsis thaliana, UniProt P93024)",,relative to: out of 4 tests,2
"IAA34 (Arabidopsis thaliana, UniProt Q9C5X0)",,relative to: out of 4 tests,3

# Study 2
# Target: Ras GTPase-activating protein-binding protein 1, RRM domain (G3BP1, Homo sapiens, UniProt Q13283)
# Sequence of UniProt Q13283 (whole entry, looked up): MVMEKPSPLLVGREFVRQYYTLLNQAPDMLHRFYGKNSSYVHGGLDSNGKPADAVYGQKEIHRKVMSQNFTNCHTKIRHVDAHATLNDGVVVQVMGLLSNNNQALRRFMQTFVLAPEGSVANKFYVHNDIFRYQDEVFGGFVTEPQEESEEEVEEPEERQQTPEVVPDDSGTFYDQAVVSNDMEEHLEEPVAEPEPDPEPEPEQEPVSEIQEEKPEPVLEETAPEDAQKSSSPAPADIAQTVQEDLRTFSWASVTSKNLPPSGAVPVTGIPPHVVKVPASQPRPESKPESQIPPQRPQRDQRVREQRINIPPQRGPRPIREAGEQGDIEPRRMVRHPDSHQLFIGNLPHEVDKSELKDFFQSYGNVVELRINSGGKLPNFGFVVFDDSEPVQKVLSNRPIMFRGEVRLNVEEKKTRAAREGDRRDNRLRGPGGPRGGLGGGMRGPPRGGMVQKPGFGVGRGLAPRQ
# Method: RNA Bind-n-Seq
# Form: RNA
# Medium: in vitro
# Tested at: 1 µM
# Setting: whole 134-nt RNA, ends assumed
# Together with: 150 mM KCl
# Relative to: input library
# Reading: higher = stronger binding
# Constant ends, left off below: GGGAGUUCUACAGUCCGACGAUC … UGGAAUUCUCGGGUGUCAAGG
Sequence,log2 enrichment
UUUAAACUGAAGCCGCGGCCGAAAACGCCAAGAGAUUGAUGCUGUAGCUGCCCUGAGAUAACCAGGACUGUGGAAUCGGGAAGAGCUCAU,0.0684
AAGUCCUGUGCUACACAUCGUAUGUACCGAAUCGGCCCCGGGCCCCGGGGCCCCGGAAAGUAUUAUGUUACGCCGUUCGGAUCUGCACUU,-0.602
UGGAUAUGGUUAUAGAAGAAGUGGCCGAGAUAAAUAUGGCCCUCCUACUCGCACAGAGUACAGACUUAUUGUGGAGAAUUUGUCAAGUCG,-0.0535
AAGUCCUGUGCUACACAUCGUAUGUACCGAAUCGGGAAAGGGUUUUUUUGGGUGGGAAAGUAUUAUGUUACGCCGUUCGGAUCUGCACUU,0.578
AAGUCCUGUGCUACACAUCGUAUGUACCGAAUCGGGUUUUGGGGUUUUGGUUUUGGGAAAGUAUUAUGUUACGCCGUUCGGAUCUGCACU,-0.258
AGUCCUGUGCUACACAUCGUAUGUACCGAAUCAAAUUUUUAAAUUUAAAUUUUUAAAAAAGUAUUAUGUUACGCCGUUCGGAUCUGCACU,-0.717
ACCAUGCAGGUGGGCAUCUUUGGGAAGUGGGGCAAGGGGGGGAUAGGGAGGGGGGUAACACUUUGGGAACAGGUGGUCCCAGGUGGUUUC,0.81
UCCUGUGCUACACAUCGUAUGUACCGAAUCGGGGCCCCCGGGGCCCCCGGGGCCCCCGGAAAGUAUUAUGUUACGCCGUUCGGAUCUGCA,-0.703
UGGCCCUGGUGGCAUGCGGGGAGGACGAGGUGGCCUCAUGGAUCGUGGUGGUCCCGGUGGAAUGUUCAGAGGUGGCCGUGGUGGAGACAG,1.13
UCCUCAAGUCCUGUGCUACACAUCGUAUGUACCGAAUCGGGCGGGCGGCGGGAAAGUAUUAUGUUACGCCGUUCGGAUCUGCACUUCCAG,-0.119
UCCUGUGCUACACAUCGUAUGUACCGAAUCGGAAAAAAAGGAAAAAAAGGUUUUUUUGGAAAGUAUUAUGUUACGCCGUUCGGAUCUGCA,0.00729
UCAAGUCCUGUGCUACACAUCGUAUGUACCGAAUCGGGGCCGGGGCCGGCCGGGGAAAGUAUUAUGUUACGCCGUUCGGAUCUGCACUUC,-1.1
GUCCUGUGCUACACAUCGUAUGUACCGAAUCGGCCCCCGGGGCCCCCGGGGCCCCCGGAAAGUAUUAUGUUACGCCGUUCGGAUCUGCAC,-0.468
CAAGUCCUGUGCUACACAUCGUAUGUACCGAAUCGGGGUUUGGGUUUGGGUUUGGGAAAGUAUUAUGUUACGCCGUUCGGAUCUGCACUU,0.766

# Study 3
# Target: CCND1, cyclin fold, Cln2 fusion (human)
# Method: yeast growth competition, sequencing
# Medium: yeast
# Setting: weak parent motif
# Relative to: not given
# Reading: higher = stronger binding
# Starting sequence: CDC6 docking peptide (human); TLKGRRLVFDNQL; partner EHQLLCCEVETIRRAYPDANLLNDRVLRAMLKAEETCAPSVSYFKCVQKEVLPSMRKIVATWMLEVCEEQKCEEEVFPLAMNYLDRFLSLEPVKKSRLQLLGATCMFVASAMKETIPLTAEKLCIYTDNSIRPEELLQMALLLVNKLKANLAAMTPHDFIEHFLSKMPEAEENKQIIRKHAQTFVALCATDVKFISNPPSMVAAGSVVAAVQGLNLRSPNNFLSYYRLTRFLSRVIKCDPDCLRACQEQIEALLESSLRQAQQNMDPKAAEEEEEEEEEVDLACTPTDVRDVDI
Variant,normalised enrichment score
KLKGRRLVFDNQL [T1K],0.363
QLKGRRLVFDNQL [T1Q],-0.382
TLKGRRNVFDNQL [L7N],0.0239
TLKGRRLVFDNQI [L13I],0.66
TLKGRRLSFDNQL [V8S],1.01
TLKGRREVFDNQL [L7E],0.23
TLPGRRLVFDNQL [K3P],0.0514
TQKGRRLVFDNQL [L2Q],-0.0627
TLKGRRLVFDNLL [Q12L],0.841
TLKGRWLVFDNQL [R6W],-0.457
TLKGRRLVFDKQL [N11K],0.0408
TLKGRRLVFDPQL [N11P],0.594
TLKGRSLVFDNQL [R6S],0.182
TLKKRRLVFDNQL [G4K],0.129
TMKGRRLVFDNQL [L2M],0.406
TLKGRRLVPDNQL [F9P],0.119
TLKGRRLVFMNQL [D10M],0.392
TLKGRRKVFDNQL [L7K],0.153
TLKGRRLAFDNQL [V8A],-0.369
TLKGRRLVFDNSL [Q12S],0.123
TLKGRRLRFDNQL [V8R],0.444
TDKGRRLVFDNQL [L2D],0.113
TTKGRRLVFDNQL [L2T],0.0592
TLKGRRLPFDNQL [V8P],-0.335
TLKGRRLVFDNVL [Q12V],0.623

# Study 4
# Target: ABI1, truncated, D143A, DHFR fusion (Arabidopsis thaliana)
# Method: DHFR PCA, deep sequencing
# Medium: yeast
# Setting: methotrexate growth selection, single substitutions
# Together with: (+)-ABA 0.11 µM
# Relative to: wild-type fitted maximum
# Reading: higher = stronger binding
# Starting sequence: PYL1, truncated, DHFR fusion (Arabidopsis thaliana); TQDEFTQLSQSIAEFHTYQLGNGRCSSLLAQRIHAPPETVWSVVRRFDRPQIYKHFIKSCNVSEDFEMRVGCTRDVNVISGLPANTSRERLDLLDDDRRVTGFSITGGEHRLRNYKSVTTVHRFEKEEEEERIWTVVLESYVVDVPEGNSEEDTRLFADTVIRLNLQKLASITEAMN
Variant,relative binding score [%]
D95Q,0.789
V40C,-2.36
E152T,11.9
R123G,77.9
T154G,-1.19
E128W,15.1
S150K,11.3
G23N,31.7
V121Q,3.47
G71W,-1.44
E130P,63.6
R132D,74
W41I,-4.16
P146Q,17.1
V44I,11.1
T39H,12.1
W41N,-18.7
E64G,20.2

# Repeated from above (study 3):
Variant,normalised enrichment score
TLKKRRLVFDNQL [G4K],0.129
TMKGRRLVFDNQL [L2M],0.406
TLKGRRLVPDNQL [F9P],0.119
TLKGRRLVFMNQL [D10M],0.392
TLKGRRKVFDNQL [L7K],0.153
TLKGRRLAFDNQL [V8A],-0.369
